Experimental data gathered from unrelated publications.
Each line is one published result; not all experiments were run side by side. ± gives the spread as reported.
rep main protease: Replicase polyprotein 1ab, main protease (rep, Severe acute respiratory syndrome-related coronavirus, UniProt P0C6X7)
rep papain-like protease: Replicase polyprotein 1ab, papain-like protease (rep, Severe acute respiratory syndrome-related coronavirus, UniProt P0C6X7)

With `COC(=O)c1ccccc1NC(=O)Cn1cc(C(=O)C(F)(F)F)c2ccccc21` the Ki was 27 ± 2 µM (rep main protease; inhibitor).
For `O=c1cc(C(F)(F)F)c2ccc(O)cc2o1`, the Kd was 202 µM (rep papain-like protease; binding).
The Ki of `CC(=O)N[C@@H](CCC(=O)O)C(=O)N[C@@H](CO)C(=O)N[C@H](C(=O)N[C@@H](CC(C)C)C(=O)N[C@H](C=O)CCC(N)=O)[C@@H](C)O` is reported as 8.27 µM (rep main protease; enzyme activity, inhibitor; pH 7.3).
With `O=C(NC(NC(=O)OCc1ccccc1)c1ccc(C(F)(F)F)cc1)OCc1ccccc1` the Ki was 366 µM (rep main protease; enzyme activity, inhibitor).
The Ki of `CSCC[C@@H](C=O)NC(=O)[C@H](CC(C)C)NC(=O)[C@H](CC(C)C)NC(C)=O` is reported as 0.6 µM (rep main protease; enzyme activity, inhibitor).
`Oc1cc(O)cc(Oc2c(O)cc(O)cc2Oc2c(O)cc(O)cc2O)c1` gave a Ki of 8.2 µM (rep main protease; enzyme activity, inhibitor).
With `O=[N+]([O-])c1ccc(O)c(O)c1` the Kd was 461 µM (rep papain-like protease; binding).
The IC50 of `CCC(C(=O)Nc1ccccc1F)n1cccc2nc(SCc3ccc(F)cc3)nc1-2` (stereo not drawn) is reported as 7.57 ± 1.18 µM (rep papain-like protease; enzyme activity).
The EC50 of `O=C[C@H](C[C@@H]1CCNC1=O)NC(=O)[C@H](CC1CCCCC1)NC(=O)c1cc2ccccc2[nH]1` is reported as 5.38 µM (rep main protease; viral replication).
For `CCC[C@H](NC(=O)[C@H](CC(C)C)NC(=O)OCc1ccccc1)C(=O)C(=O)NCc1ccccn1`, the Ki was 0.14 µM (rep main protease; enzyme activity, inhibitor).
`CC(C)C[C@H](NC(=O)OCc1ccccc1)C(=O)N[C@H](C=O)C[C@@H]1CCNC1=O` gave an EC50 of 3.63 µM (rep main protease; viral replication).
`COC(=O)C[C@H](NC(=O)C(NC(=O)OCc1ccccc1)C(C)C)C(=O)CF` (stereo partly drawn) has a Ki of 0.512 ± 0.025 µM (rep main protease; inhibitor).

Excerpt of the above:
With `COC(=O)c1ccccc1NC(=O)Cn1cc(C(=O)C(F)(F)F)c2ccccc21` the Ki was 27 ± 2 µM (rep main protease; inhibitor).
